Assay results pooled from the literature.
Parts stem from different laboratories: compare values within a part only.

Sample 1 — technique: universal PBM; form: double-stranded DNA, one strand shown; sample: in vitro; tested at: 600 nM; reading: higher = stronger binding
Target: Sal-like protein 4, full length isoform A (SALL4, Homo sapiens, UniProt Q9UJQ4, residues 1-1053)
Chain of UniProt Q9UJQ4 (whole entry, looked up): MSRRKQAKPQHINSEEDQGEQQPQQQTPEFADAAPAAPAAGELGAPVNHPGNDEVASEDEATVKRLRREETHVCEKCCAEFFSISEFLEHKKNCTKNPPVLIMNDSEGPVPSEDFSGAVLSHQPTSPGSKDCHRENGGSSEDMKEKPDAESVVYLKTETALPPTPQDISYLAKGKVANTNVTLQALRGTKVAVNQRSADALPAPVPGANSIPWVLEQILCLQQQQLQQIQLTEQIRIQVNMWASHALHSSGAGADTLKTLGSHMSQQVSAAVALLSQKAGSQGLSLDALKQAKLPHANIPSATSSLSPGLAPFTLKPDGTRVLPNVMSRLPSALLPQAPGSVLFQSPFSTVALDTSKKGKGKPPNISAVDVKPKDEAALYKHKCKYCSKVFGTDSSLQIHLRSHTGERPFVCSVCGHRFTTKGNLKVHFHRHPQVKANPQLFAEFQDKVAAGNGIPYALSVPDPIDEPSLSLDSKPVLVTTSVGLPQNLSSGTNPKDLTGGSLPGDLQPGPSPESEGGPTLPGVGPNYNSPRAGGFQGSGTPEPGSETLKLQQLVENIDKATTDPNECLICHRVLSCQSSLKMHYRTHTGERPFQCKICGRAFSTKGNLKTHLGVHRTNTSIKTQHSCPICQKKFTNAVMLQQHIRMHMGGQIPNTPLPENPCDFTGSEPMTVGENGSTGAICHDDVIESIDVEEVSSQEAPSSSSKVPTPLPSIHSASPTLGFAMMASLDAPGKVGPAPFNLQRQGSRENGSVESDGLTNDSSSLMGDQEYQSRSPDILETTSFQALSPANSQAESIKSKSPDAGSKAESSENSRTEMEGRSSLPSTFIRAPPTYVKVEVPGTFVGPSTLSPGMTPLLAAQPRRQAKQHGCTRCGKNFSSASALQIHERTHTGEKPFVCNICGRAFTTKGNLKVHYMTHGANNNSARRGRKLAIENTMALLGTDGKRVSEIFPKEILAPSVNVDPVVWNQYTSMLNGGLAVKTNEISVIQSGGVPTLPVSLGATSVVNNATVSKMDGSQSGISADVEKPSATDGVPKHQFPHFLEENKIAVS
Setting: 8-mer, flanks averaged, mean of replicates
Oligonucleotide	E-score
GATGGTGA	-0.037
AGCTCAGA	-0.151
GTGTTGGA	-0.0714
AGACGGAA	-0.028
GGCCTTTA	-0.0943
GTTGACTA	0.0737
GGCCCCCA	-0.401
CAGGGAGG	-0.294
CCCTTGTA	0.0791
ACGACGTG	-0.0169
TAGTCTGA	0.0153
AGCTCCAT	-0.157
CCCAGCTC	-0.317
CAAACGCC	-0.208
CCCTTAAC	-0.0854
AGCTCCCC	-0.23
ATGGTGAC	-0.024
CACTTATA	0.282
ATATCGAG	0.156
TTGGGAAA	0.0896
AAGTAGTG	0.059
GCTGCGAC	-0.0841
AGTCTGAG	-0.114

Sample 2 — technique: protein binding microarray; form: double-stranded DNA, one strand shown; sample: in vitro; tested at: not given; baseline: not given; reading: higher = stronger binding
Target: Histone acetyltransferase KAT6A, winged helix 2, GST fusion (KAT6A, Homo sapiens, UniProt Q92794, residues 85-181)
Setting: 8-mer, flanks averaged, mean of 2 arrays, mostly near background
Construct (chain): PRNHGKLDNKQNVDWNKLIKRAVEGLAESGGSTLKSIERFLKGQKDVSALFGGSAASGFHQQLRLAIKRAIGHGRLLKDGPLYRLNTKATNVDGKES
Oligonucleotide	E-score
GCCGACGC	0.197
AATTATCC	-0.152
ATCATTCG	0.086
TAACCGTA	-0.178
AAACAACG	-0.125
CGCCAAGC	0.141
ATGGGTGA	-0.0862
GAAAGATA	0.0248
AAAGTCTC	-0.289
TAAAGTGA	-0.0684
GAGCTGGA	0.0359
ATAGTGTG	-0.104
TCCTCACA	0.0282
AAGATACT	-0.0456
AATGGCAT	0.14
GGCAGACA	0.0533
CAAATAAC	-0.0666
GGAGGAGA	0.0483
CCCACCGG	0.196
AGTTGCGA	0.117

Sample 3 — technique: competition protein-binding microarray; form: double-stranded DNA, one strand shown; sample: in vitro; tested at: 2 µM; added: Cbf1 competitor, 0.05 µM; reading: higher = stronger binding
Target: Phosphate system positive regulatory protein PHO4, full length, GST-tagged (PHO4, Saccharomyces cerevisiae, UniProt P07270, residues 1-312)
Setting: whole 60-bp probe, lowest competitor level
Construct (chain): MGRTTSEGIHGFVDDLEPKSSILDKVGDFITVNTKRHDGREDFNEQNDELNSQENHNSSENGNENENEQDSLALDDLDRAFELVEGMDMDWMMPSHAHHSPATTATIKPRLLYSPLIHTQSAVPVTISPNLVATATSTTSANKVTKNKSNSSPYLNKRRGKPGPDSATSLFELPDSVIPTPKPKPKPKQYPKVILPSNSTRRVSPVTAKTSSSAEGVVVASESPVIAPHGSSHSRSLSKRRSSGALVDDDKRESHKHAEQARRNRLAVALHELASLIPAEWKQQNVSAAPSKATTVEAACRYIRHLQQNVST
Oligonucleotide	fluorescence intensity [a.u.]
CCGGCGCTGCTAAATCATGTGAGTTTAGCGCGTACCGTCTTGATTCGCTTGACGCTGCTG	4990
AAGTTCATATCCTAAAACGTGTTGACAACACTTCGGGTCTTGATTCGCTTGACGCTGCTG	13000
CCGCATTCGACTCACCACGTGGAATATCCTTCTCAGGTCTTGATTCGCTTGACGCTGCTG	17900
CGTCCTAGTGATTGTCACATGACTTCCATGAGGAAGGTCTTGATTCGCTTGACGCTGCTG	6660
TTAGTAATCTAGAATCACATGGTACCTCTTTCTTCGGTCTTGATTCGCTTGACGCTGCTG	8660
CATACCCAACCTTGTCACTGTACTTAAGATATTTGTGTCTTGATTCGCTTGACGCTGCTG	3710
CTTCTGTAAATTTGCTCGGTGGGTGGACGCGCCCCGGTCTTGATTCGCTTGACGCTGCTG	4310
GTCCCCCCGCCACACATCGTGGAATAATCGCTATCGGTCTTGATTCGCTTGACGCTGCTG	6400
TTAAGTCTATACCTTCACGTGACTCGCTAGTACCCGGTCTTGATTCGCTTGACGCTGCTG	10900
GAACTGCTTCGAAAACACGTGTTCCCCTCCGTTCCAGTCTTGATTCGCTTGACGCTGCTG	17000
CTAACGAAGGTTTGGTTTGTGGGTGACAAGCCAAGTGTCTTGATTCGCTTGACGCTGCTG	3790
CTTCTGTAAATTTGGAGAGTGGGTGGACGCGCCCCGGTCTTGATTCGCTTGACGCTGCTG	3990
AACCGGTCCCTTCTGTGCGTGGTCGGACCTGCTACAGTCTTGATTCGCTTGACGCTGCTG	6280
TACTTACCCTACCACCACATGCCGTATCCACCCTCAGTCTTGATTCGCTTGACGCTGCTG	10300
GATAGGTGATGTTGTCATGCCTGAGTATGTGTATGAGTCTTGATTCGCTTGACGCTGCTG	6090
CATACCCAACCTTTTCACGTGCGATAAGATATTTGTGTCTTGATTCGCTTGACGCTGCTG	12700
TGCCTCTTTTTTCTACACATGCAGTGTTAAATCCCAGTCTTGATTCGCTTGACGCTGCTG	8180
TTGTTGAAAACGAGTCACGTGCTTTACCATTTTGCTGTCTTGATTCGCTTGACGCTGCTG	15500
ACTCTGTTTGCGAGTCACGTGAAATATTTCCTGTGGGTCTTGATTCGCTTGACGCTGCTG	9860

Sample 4 — technique: Spec-seq; form: double-stranded DNA, one strand shown; sample: in vitro; tested at: not given; setting: whole probe, mean of replicates; baseline: not given; reading: lower = stronger binding; shared flanks, not repeated: GAGTCGTCTCGTCAGCAC … CCGTAGAGCACTCAGGTC
Target: POU, POU domain (Salpingoeca helianthica)
Construct (chain): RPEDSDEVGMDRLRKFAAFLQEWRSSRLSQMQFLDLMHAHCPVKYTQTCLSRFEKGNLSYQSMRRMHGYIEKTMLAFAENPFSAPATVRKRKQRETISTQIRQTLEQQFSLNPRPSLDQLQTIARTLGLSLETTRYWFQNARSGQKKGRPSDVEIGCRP
Oligonucleotide	relative binding energy [ln ratio]
ATGCATAC	0.717
GCATTAAT	-0.0531
CCAATAAT	0.128
ATGGTGAT	1.21
ATATTCAT	0.997
ATGCTTCA	1.49
CCATTAAT	-0.241
ATCACAAT	1.09
ATGCATTG	1.43
TGGTTAAT	-0.487
ATGCTTCC	0.902
